Published values of several laboratories.
Protocols differ between the studies behind these lines. ± marks the error that the study gave.
Method: steady-state kinetics
B1: Tcur_2987 W263F/W376F (Thermomonospora curvata, UniProt D1A807); chain ACSEERAAGARPSATQTTGTATEPFHGPHQAGIATPPQAHAVFLGLDLRKGTGRKELGRLMRLLTDDARRLTQGRPALADPEPDLAPLPSRLTFTFGFGPGLFKAAGLEKQRPEGLRPLPPFKVDRLEDRWSGGDLLVQICCDDPITLAHALRMTVKDARAFTRVRWVQRGFRRSPGVQSSGATQRNLMGQLDGTVNPVPGTADFDQAVWVQDGPEWLRGGTTLVLRRIRMELEKFDEADPAGKEFAVGRRLTSGAPLTGRHEHDEPDFDAVDSAGFPVIAENAHIRLAHVDSPRLRMLRRPYNYDEGLTADGRSDAGLLFAAYQADIDRQFIPVQRRLDEGGDLLNLFTTPIGSAVFAIPPGCDENGWIGQGLLG
B2: TenA_E (Arabidopsis thaliana, UniProt Q9ASY9); chain MEKRGVIDTWIDKHRSIYTAATRHAFVVSIRDGSVDLSSFRTWLGQDYLFVRRFVPFVASVLIRACKDSGESSDMEVVLGGIASLNDEIEWFKREGSKWDVDFSTVVPQRANQEYGRFLEDLMSSEVKYPVIMTAFWAIEAVYQESFAHCLEDGNKTPVELTGACHRWGNDGFKQYCSSVKNIAERCLENASGEVLGEAEDVLVRVLELEVAFWEMSRGGQ
B3: alanine racemase H166F (Geobacillus stearothermophilus, UniProt P10724); chain MNDFHRDTWAEVDLDAIYDNVENLRRLLPDDTHIMAVVKANAYGHGDVQVARTALEAGASRLAVAFLDEALALREKGIEAPILVLGASRPADAALAAQQRIALTVFRSDWLEEASALYSGPFPIHFHLKMDTGMGRLGVKDEEETKRIVALIERHPHFVLEGLYTFFATADEVNTDYFSYQYTRFLHMLEWLPSRPPLVHCANSAASLRFPDRTFNMVRFGIAMYGLAPSPGIKPLLPYPLKEAFSLHSRLVHVKKLQPGEKVSYGATYTAQTEEWIGTIPIGYADGWLRRLQHFHVLVDGQKAPIVGRICMDQCMIRLPGPLPVGTKVTLIGRQGDEVISIDDVARHLETINYEVPCTISYRVPRIFFRHKRIMEVRNAIGRGESSA
B4: SACOL1063 (Staphylococcus aureus, UniProt Q5HH30); chain MFSKVNNQKMLEDCFYIRKKVFVEEQGVPEESEIDEYESESIHLIGYDNGQPVATARIRPINETTVKIERVAVMKSHRGQGMGRMLMQAVESLAKDEGFYVATMNAQCHAIPFYESLNFKMRGNIFLEEGIEHIEMTKKLTSLN
B5: cyc1 F198L (Streptomyces coelicolor, UniProt Q9K499); chain MHAFPHGTTATPTAIAVPPSLRLPVIEAAFPRQLHPYWPKLQETTRTWLLEKRLMPADKVEEYADGLCYTDLMAGYYLGAPDEVLQAIADYSAWFFVWDDRHDRDIVHGRAGAWRRLRGLLHTALDSPGDHLHHEDTLVAGFADSVRRLYAFLPATWNARFARHFHTVIEAYDREFHNRTRGIVPGVEEYLELRRLTLAHWIWTDLLEPSSGCELPDAVRKHPAYRRAALLSQEFAAWYNDLCSLPKEIAGDEVHNLGISLITHHSLTLEEAIGEVRRRVEECITEFLAVERDALRFADELADGTVRGKELSGAVRANVGNMRNWFSSVYWFHHESGRYMVDSWDDRSTPPYVNNEAAGEK
B6: nahG (Pseudomonas putida, UniProt P23262); chain MKNNKLGLRIGIVGGGISGVALALELCRYSHIQVQLFEAAPAFGEVGAGVSFGPNAVRAIVGLGLGEAYLQVADRTSEPWEDVWFEWRRGSDASYLGATIAPGVGQSSVHRADFIDALVTHLPEGIAQFGKRATQVEQQGGEVQVLFTDGTEYRCDLLIGADGIKSALRSHVLEGQGLAPQVPRFSGTCAYRGMVDSLHLREAYRAHGIDEHLVDVPQMYLGLDGHILTFPVRNGGIINVVAFISDRSEPKPTWPADAPWVREASQREMLDAFAGWGDAARALLECIPAPTLWALHDLAELPGYVHGRVVLIGDAAHAMLPHQGAGAGQGLEDAYFLARLLGDTQADAGNLAELLEAYDDLRRPRACRVQQTSWETGELYELRDPVVGANEQLLGENLATRFDWLWNHDLDTDLAEARARLGWEHGGGGALRQG
B7: lpxA (Escherichia coli, UniProt P0A722); chain MIDKSAFVHPTAIVEEGASIGANAHIGPFCIVGPHVEIGEGTVLKSHVVVNGHTKIGRDNEIYQFASIGEVNQDLKYAGEPTRVEIGDRNRIRESVTIHRGTVQGGGLTKVGSDNLLMINAHIAHDCTVGNRCILANNATLAGHVSVDDFAIIGGMTAVHQFCIIGAHVMVGGCSGVAQDVPPYVIAQGNHATPFGVNIEGLKRRGFSREAITAIRNAYKLIYRSGKTLDEVKPEIAELAETYPEVKAFTDFFARSTRGLIR
B8: GTPBP3 A322P/E225K (Homo sapiens, UniProt Q969Y2); chain TRRSSGAPAPGSGATIFALSSGQGRCGIAVIRTSGPASGHALRILTAPRDLPLARHASLRLLSDPRSGEPLDRALVLWFPGPQSFTGEDCVEFHVHGGPAVVSGVLQALGSVPGLRPAEAGEFTRRAFANGKLNLTEVEGLADLIHAETEAQRRQALRQLDGELGHLCRGWAETLTKALAHVEAYIDFGEDDNLEEGVLEQADIKVRALQVALGAHLRDARRGQRLRSGVHVVVTGPPNAGKSSLVNLLSRKPVSIVSPEPGTTRDVLETPVDLAGFPVLLSDTAGLREGVGPVEQEGVRRPRERLEQADLILAMLDASDLASPSSCNFLATVVASVGAQSPSDSSQRLLLVLNKSDLLSPEGPGPGPDLPPHLLLSCLTGEGLDGLLEALRKELAAVCGDPSTDPPLLTRARHQHHLQGCLDALGHYKQSKDLALAAEALRVARGHLTRLTGGGGTEEILDIIFQDFCVGK
Chain of UniProt P07914 (whole entry, looked up): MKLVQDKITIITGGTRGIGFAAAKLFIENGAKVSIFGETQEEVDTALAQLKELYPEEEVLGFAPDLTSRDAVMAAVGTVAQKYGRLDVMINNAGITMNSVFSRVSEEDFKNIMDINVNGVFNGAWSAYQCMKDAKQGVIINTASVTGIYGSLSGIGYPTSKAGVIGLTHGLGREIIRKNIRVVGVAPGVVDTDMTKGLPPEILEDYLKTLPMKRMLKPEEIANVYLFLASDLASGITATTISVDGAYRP
Chain of UniProt Q04049 (whole entry, looked up): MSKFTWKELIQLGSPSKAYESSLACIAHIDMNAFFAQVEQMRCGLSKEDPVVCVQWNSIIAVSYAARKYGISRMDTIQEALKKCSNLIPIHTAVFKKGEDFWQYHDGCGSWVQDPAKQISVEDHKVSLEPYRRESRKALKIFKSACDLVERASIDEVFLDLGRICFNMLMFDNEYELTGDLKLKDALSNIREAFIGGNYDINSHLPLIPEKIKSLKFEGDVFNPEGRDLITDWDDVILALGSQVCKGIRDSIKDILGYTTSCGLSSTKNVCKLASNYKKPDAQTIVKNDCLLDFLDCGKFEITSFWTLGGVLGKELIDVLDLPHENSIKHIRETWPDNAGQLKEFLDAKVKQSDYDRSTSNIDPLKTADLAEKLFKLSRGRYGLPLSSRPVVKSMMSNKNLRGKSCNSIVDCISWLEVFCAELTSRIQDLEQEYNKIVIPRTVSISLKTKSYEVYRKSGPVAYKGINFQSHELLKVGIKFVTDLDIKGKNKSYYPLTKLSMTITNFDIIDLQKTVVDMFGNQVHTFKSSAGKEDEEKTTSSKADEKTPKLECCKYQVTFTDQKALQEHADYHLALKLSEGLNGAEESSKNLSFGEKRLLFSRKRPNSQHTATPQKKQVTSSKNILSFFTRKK
Chain of UniProt O60656 (whole entry, looked up): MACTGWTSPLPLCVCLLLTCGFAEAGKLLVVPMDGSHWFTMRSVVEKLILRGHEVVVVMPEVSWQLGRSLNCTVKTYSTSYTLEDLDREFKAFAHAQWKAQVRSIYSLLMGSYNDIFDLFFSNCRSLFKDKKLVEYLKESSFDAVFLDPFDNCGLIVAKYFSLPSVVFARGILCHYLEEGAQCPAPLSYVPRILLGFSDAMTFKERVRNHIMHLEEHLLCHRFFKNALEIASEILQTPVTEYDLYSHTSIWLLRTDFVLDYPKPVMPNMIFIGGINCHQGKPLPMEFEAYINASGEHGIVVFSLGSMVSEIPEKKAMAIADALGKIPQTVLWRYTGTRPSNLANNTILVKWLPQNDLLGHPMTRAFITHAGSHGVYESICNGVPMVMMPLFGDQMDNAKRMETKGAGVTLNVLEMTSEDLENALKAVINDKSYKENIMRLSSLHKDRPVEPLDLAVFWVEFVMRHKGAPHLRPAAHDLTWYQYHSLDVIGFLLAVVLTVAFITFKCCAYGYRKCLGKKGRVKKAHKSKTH
Chain of UniProt P21777 (whole entry, looked up): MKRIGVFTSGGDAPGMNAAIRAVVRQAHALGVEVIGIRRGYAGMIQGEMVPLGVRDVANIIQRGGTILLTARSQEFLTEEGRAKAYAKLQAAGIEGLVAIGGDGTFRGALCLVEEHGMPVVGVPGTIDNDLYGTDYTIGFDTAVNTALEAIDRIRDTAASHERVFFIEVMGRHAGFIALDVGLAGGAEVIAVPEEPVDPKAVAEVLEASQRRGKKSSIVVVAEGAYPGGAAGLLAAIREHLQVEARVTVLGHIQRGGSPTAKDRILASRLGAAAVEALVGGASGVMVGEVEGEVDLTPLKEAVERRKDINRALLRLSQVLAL

Molecule	substrate	pH	temperature	setting	with	endpoint	value
B1 (Tcur_2987 W263F/W376F)	Nc1c(S(=O)(=O)O)cc(Nc2cccc(S(=O)(=O)CCOS(=O)(=O)O)c2)c2c1C(=O)c1ccccc1C2=O	pH 3	–	sigmoidal kinetics	H2O2 1 mM	kcat	69 ± 1 s⁻¹
alanine aminopeptidase (Neisseria meningitidis, UniProt Q9JYV4)	NC(=O)Cc1cc(=O)oc2cc(NC(=O)[C@@H](N)CCCCOCc3ccccc3)ccc12	pH 7.5	37 °C	–	–	kcat	3.24 ± 0.03 s⁻¹
pfkA (Thermus thermophilus, UniProt P21777)	Nc1ncnc2c1ncn2[C@@H]1O[C@H](COP(=O)(O)OP(=O)(O)OP(=O)(O)O)[C@@H](O)[C@H]1O	pH 8	25 °C	Hill fit	Fru-6-P 5 mM, MgCl2 5 mM	kcat	25 s⁻¹
B2 (TenA_E)	Cc1ncc(CNC=O)c(N)n1	pH 7.5	30 °C	formylamino-HMP amidohydrolase activity	450 mM glycine betaine	kcat	0.00281 ± 0.00023 s⁻¹
CYP2C9 (Homo sapiens, UniProt P11712)	Cc1ccc(Cl)c(Nc2ccccc2C(=O)O)c1Cl	pH 7.4	–	Hill model, CYP2C9, metabolite, not purified	–	kcat	0.000213 s⁻¹
enzyme (UniProt A0A7J5BGR1)	Oc1ccc2c(c1)CCC2	pH 8	25 °C	–	–	kcat	2.3 s⁻¹
B3 (alanine racemase H166F)	C[C@@H](N)C(=O)O	pH 9	room temperature	–	NAD+ 10 mM	kcat	3.9 s⁻¹
B4 (SACOL1063)	CC(=O)SCCNC(=O)CCNC(=O)[C@H](O)C(C)(C)COP(=O)(O)OP(=O)(O)OC[C@H]1O[C@@H](n2cnc3c(N)ncnc32)[C@H](O)[C@@H]1OP(=O)(O)O	pH 8	37 °C	–	L-Thr 10 mM, AcCoA 0-2 mM	kcat	5.37 s⁻¹
B5 (cyc1 F198L)	CC(C)=CCC/C(C)=C/CC/C(C)=C/CO[P@@](=O)(O)OP(=O)(O)O	pH 6.5	30 °C	–	MgCl2 10 mM	kcat	0.00475 ± 5e-05 s⁻¹
AphC (Rhodococcus jostii, UniProt Q0S9X1)	Oc1ccccc1O	pH 8	25 °C	apparent	O2	kcat	0.068 s⁻¹
BaiA1 (Clostridium scindens, UniProt P07914)	C[C@H](CCC(=O)SCCNC(=O)CCNC(=O)[C@H](O)C(C)(C)COP(=O)(O)OP(=O)(O)OC[C@H]1O[C@@H](n2cnc3c(N)ncnc32)[C@H](O)[C@@H]1OP(=O)(O)O)[C@H]1CC[C@H]2[C@@H]3[C@H](O)C[C@@H]4C[C@H](O)CC[C@]4(C)[C@H]3CC[C@]12C	pH 8.7	37 °C	–	NAD+	kcat	0.817 s⁻¹
ddh (Ureibacillus thermosphaericus, UniProt G1UII1)	O=C(O)C(=O)Cc1ccccc1	pH 9	30 °C	reductive amination	NH4Cl 200 mM, NADPH 0.5 mM	kcat	0.18 ± 0.02 s⁻¹
LovD A190T/A86V/C40A/C60N/D12G/G275S/H161Y/K26E (Aspergillus terreus)	CCC(C)(C)C(=O)SCCC(=O)OC	–	25 °C	10% DMSO	2 mM MJA	kcat	0.0435 ± 0.0005 s⁻¹
RAD30 (Saccharomyces cerevisiae, UniProt Q04049)	Nc1nc2c(ncn2[C@H]2C[C@H](O)[C@@H](COP(=O)(O)OP(=O)(O)OP(=O)(O)O)O2)c(=O)[nH]1	pH 7.5	–	apparent Km, opposite dT, undamaged template, apparent	MgCl2 10 mM	kcat	0.00133 ± 8.33e-05 s⁻¹
B6 (nahG)	Cc1cc2nc3c(=O)[nH]c(=O)nc-3n(C[C@H](O)[C@H](O)[C@H](O)COP(=O)(O)OP(=O)(O)OC[C@H]3O[C@@H](n4cnc5c(N)ncnc54)[C@H](O)[C@@H]3O)c2cc1C	pH 8.5	25 °C	apparent, cofactor varied	NADH 200 µM, salicylate 150 µM	kcat	16.6 ± 0.3 s⁻¹
UGT1A9 (Homo sapiens, UniProt O60656)	O=c1c(O)c(-c2ccccc2)oc2cccc(O)c12	pH 7.4	37 °C	–	–	Km	0.25 µM
protein (Shewanella denitrificans, UniProt Q12KT8)	Cc1cn([C@H]2C[C@H](O)[C@@H](COP(=O)(O)OP(=O)(O)O[C@H]3O[C@H](C)[C@@H](O)[C@H](N)[C@H]3O)O2)c(=O)[nH]c1=O	pH 8.5	–	–	acetyl-CoA 2 mM	kcat	7.9 ± 0.8 s⁻¹
B7 (lpxA)	CC(=O)N[C@H]1[C@@H](OP(=O)(O)OP(=O)(O)OC[C@H]2O[C@@H](n3ccc(=O)[nH]c3=O)[C@H](O)[C@@H]2O)O[C@H](CO)[C@@H](O)[C@@H]1O	pH 8	25 °C	–	R-3-hydroxymyristoyl-ACP 40 µM	kcat	3.6 s⁻¹
B8 (GTPBP3 A322P/E225K)	Nc1nc2c(ncn2[C@@H]2O[C@H](COP(=O)(O)OP(=O)(O)OP(=O)(O)O)[C@@H](O)[C@H]2O)c(=O)[nH]1	pH 8	37 °C	KCl 300 mM	–	kcat	0.0132 ± 0.002 s⁻¹
